Assay results gathered from unrelated publications.
A part holds a random share of what one study measured.

Series 1
Target: Histone acetyltransferase KAT6A, both winged helices, GST fusion (KAT6A, Homo sapiens, UniProt Q92794, residues 1-181)
Technique: protein binding microarray
Molecule type: double-stranded DNA, one strand shown
Sample: in vitro
Tested at: not given
Setting: 8-mer, flanks averaged, mean of 2 arrays, mostly near background
Baseline: not given
Direction: higher = stronger binding
Construct (chain): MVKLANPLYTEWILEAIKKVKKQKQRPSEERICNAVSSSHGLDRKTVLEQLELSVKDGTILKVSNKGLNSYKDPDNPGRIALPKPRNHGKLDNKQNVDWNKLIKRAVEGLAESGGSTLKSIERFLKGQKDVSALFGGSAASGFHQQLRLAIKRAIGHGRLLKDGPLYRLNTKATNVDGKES
| Sequence | E-score |
| --- | --- |
| GAGATCCA | -0.079 |
| AGTGTTTA | 0.131 |
| AGACCACA | -0.136 |
| ATAGATGC | -0.0476 |
| ACAGAGCT | -0.151 |

Series 2
Target: Prothrombin, mature alpha-thrombin (F2, Homo sapiens, UniProt P00734)
Technique: aptamer microarray, sandwich
Molecule type: DNA with 2'F-ANA
Sample: in vitro
Tested at: 200 nM
Setting: whole 15-mer aptamer, many near background
Together with: Cy3 exosite-II aptamer, 400 nM
Direction: higher = stronger binding
Sequence: GGTTGGTGTGGTTGG
| Modification | mean fluorescence intensity [a.u.] |
| --- | --- |
| 2'F-ANA at 1 3 6 10 12 14 | 60.8 |
| 2'F-ANA at 1 3 4 5 6 9 11 14 | 49.7 |
| 2'F-ANA at 1 3 6 7 8 9 10 13 14 15 | 65.3 |
| 2'F-ANA at 2 5 8 9 12 13 | 112 |
| 2'F-ANA at 9 10 11 12 14 | 103 |
| 2'F-ANA at 1 2 6 7 8 9 10 11 12 13 14 15 | 55.4 |

Series 3
Target: RNA binding protein fox-1 homolog 2, RRM domain, GST-SBP tag (RBFOX2, Homo sapiens, UniProt O43251-10, residues 100-194)
Technique: RNA Bind-n-Seq
Molecule type: RNA
Sample: in vitro
Tested at: 365 nM
Setting: natural RNA segment, single round, ends assumed
Baseline: no-protein control
Direction: higher = stronger binding
Shared flanks, not repeated: GGGAGUUCUACAGUCCGACGAUC … UGGAAUUCUCGGGUGCCAA
Construct (chain): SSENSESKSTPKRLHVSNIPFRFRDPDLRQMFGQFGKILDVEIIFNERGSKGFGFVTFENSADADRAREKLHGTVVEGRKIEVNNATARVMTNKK
| Sequence | RBNS enrichment (R) |
| --- | --- |
| GUUAAAUUUGAAAGUGAAUGUGUUCAAAUGAAAGGUUUGAUAAUUGCAUCUGUUACUACUUAGUUUCAUAGGCUUUAAUUCUAGUAUGCAUUAAAUAUUGGGCAAAAUUG | 1.74 |
| UCUGGCGCCUUCCUCGCCCCGGGCUGAGAGCUGGGUCCCGGGAGAUGGAAGCCUCCCAGGCGCGCGAGGCUUCCCGGGCGCUCUGAGGCUUCUUUCUCCUCGCCCGCUCC | 0.232 |
| AAGUAUCAAAAACCAGGUUAGGAGGUGUGCUGUAUGGCUUUUAUCUCAAUAAGUGGCAGCUUACUGGGGAAAAAGAAAUAAGAAAAAGUGUGGCCAAGCAGAAGUGGAUG | 1.24 |
| CAGAGGAAAGCGUGCUCGAAGGAUGCCAUGGUCAGGGCAGGGCCUCCAGAGCAGGUGUUGUGCCUGGAGCUGCUCUCCUGGCCUCCUUGGAUUUAUCGCAAAAACUGAAG | 0.54 |
| CCCCCACACGUGCAGCCCGGGCUGCCUCCAGGGUCUGGCUGAGUGGGAUCAGGUGGCCCUCCAACUCAGCACAGGAAAUAAGUAGAAACAUUUCAGCAGGCCACCUCCCC | 0.382 |
| AUGCUUAUAUACACAUUCCUUAGGUUGGAAGAAUAUCCACGGACAAUGCACUUAUUUUUAAACGAGCAUGACAUGAGGUGUGUUUAUAAAUUAUCAGGGAUUUUAUGUAU | 5.28 |

Mixed results
| Molecule | target | assay | test system | setting | how to read | measurement | value |
| --- | --- | --- | --- | --- | --- | --- | --- |
| PhoQ, residues 284 288 289 292 302 303 ALVSVA | PhoP, residues 12 14 15 18 19 SYFRT (Escherichia coli, UniProt P23836) | Sort-seq, refers to: YFP reporter | E. coli | PhoQ-PhoP variant library, together with: 10 µM Mg2+ | baseline: high Mg2+ state, higher = stronger signaling | fold induction | 1.87 |

For quick reference, copied from above (series 3):
| Sequence | RBNS enrichment (R) |
| --- | --- |
| UCUGGCGCCUUCCUCGCCCCGGGCUGAGAGCUGGGUCCCGGGAGAUGGAAGCCUCCCAGGCGCGCGAGGCUUCCCGGGCGCUCUGAGGCUUCUUUCUCCUCGCCCGCUCC | 0.232 |
| AAGUAUCAAAAACCAGGUUAGGAGGUGUGCUGUAUGGCUUUUAUCUCAAUAAGUGGCAGCUUACUGGGGAAAAAGAAAUAAGAAAAAGUGUGGCCAAGCAGAAGUGGAUG | 1.24 |
| CAGAGGAAAGCGUGCUCGAAGGAUGCCAUGGUCAGGGCAGGGCCUCCAGAGCAGGUGUUGUGCCUGGAGCUGCUCUCCUGGCCUCCUUGGAUUUAUCGCAAAAACUGAAG | 0.54 |
